Results collected from several papers.
Parts stem from different laboratories: compare values within a part only.
Chain of UniProt P08588 (whole entry, looked up): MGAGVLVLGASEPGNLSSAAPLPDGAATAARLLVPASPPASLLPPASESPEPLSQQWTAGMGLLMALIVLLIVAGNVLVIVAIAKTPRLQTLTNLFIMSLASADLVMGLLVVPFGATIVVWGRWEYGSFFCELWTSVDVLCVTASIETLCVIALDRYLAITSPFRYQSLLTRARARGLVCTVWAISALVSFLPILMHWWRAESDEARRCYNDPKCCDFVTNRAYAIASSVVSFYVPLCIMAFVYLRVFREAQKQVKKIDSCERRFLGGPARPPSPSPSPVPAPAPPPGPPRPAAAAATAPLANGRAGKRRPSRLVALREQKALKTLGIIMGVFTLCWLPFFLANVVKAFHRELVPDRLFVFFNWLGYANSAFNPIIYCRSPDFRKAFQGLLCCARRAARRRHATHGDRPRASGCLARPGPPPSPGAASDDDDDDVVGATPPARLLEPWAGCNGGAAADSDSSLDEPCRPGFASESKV
Chain of UniProt Q9H3N8 (whole entry, looked up): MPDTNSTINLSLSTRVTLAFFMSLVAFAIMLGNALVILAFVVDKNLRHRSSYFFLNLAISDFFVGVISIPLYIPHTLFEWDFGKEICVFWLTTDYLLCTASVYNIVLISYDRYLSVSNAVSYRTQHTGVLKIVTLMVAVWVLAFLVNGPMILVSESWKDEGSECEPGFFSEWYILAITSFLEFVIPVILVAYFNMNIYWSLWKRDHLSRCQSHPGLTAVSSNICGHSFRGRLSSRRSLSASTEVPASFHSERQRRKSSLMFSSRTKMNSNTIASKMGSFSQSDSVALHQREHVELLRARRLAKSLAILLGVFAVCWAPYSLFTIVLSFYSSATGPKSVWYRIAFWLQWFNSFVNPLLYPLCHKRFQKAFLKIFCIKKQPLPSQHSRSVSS
Chain of UniProt P35348 (whole entry, looked up): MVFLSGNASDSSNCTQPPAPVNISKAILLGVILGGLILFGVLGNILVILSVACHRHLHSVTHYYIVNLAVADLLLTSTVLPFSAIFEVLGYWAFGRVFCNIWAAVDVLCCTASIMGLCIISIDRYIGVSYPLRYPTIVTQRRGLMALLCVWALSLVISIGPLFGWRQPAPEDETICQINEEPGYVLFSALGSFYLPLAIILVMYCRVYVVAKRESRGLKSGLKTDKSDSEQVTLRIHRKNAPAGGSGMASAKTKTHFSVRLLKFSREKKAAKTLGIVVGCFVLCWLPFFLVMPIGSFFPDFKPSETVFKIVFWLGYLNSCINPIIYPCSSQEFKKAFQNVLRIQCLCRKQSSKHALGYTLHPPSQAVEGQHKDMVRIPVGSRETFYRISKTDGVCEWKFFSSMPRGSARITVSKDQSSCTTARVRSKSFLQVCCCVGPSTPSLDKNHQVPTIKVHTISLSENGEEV
Chain of UniProt P08912 (whole entry, looked up): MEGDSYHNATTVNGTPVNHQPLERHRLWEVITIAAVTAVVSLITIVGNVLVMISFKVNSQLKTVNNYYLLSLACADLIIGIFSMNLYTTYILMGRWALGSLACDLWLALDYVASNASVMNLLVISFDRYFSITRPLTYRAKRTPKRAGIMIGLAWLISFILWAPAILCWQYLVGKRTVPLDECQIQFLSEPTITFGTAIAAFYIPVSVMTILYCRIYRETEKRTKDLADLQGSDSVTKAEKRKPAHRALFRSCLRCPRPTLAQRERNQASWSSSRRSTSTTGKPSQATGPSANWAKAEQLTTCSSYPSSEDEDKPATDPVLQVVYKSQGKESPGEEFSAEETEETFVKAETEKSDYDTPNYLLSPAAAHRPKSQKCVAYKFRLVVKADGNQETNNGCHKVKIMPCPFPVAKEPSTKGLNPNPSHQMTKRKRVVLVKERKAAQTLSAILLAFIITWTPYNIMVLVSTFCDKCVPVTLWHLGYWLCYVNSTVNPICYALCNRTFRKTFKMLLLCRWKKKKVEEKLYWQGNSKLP
Chain of UniProt P08172 (whole entry, looked up): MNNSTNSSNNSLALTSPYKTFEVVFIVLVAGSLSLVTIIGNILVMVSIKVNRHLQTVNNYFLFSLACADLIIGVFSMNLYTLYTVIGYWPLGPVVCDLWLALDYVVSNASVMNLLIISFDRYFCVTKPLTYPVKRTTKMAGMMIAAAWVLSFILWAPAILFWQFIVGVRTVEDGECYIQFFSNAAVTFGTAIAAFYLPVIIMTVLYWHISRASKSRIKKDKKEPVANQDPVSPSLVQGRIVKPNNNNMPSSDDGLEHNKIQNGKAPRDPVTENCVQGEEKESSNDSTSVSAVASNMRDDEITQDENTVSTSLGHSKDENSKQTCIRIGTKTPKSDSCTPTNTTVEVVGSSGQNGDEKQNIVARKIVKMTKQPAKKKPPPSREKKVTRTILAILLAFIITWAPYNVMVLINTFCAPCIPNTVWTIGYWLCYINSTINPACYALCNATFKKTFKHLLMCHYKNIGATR

Series 1
SMILES: C[C@@H](NC(=O)Nc1cc2[nH]ncc2c(CO)n1)c1ccccc1
Effect on: cell-free assay
Concentration: 10 µM
Quantity: inhibition
ADRB1 (Homo sapiens, UniProt P08588): 6.72%
ADRA1A (Homo sapiens, UniProt P35348): 16.1%
HRH4 (Homo sapiens, UniProt Q9H3N8): 35.3%
CHRM5 (Homo sapiens, UniProt P08912): 35.8%
ADRB3 (Homo sapiens, UniProt P13945): 24.1%
CHRM2 (Homo sapiens, UniProt P08172): -3.22%

Series 2
Target: Leucine-rich repeat serine/threonine-protein kinase 2 (LRRK2, Homo sapiens, UniProt Q5S007)
Chain of UniProt Q5S007 (whole entry, looked up): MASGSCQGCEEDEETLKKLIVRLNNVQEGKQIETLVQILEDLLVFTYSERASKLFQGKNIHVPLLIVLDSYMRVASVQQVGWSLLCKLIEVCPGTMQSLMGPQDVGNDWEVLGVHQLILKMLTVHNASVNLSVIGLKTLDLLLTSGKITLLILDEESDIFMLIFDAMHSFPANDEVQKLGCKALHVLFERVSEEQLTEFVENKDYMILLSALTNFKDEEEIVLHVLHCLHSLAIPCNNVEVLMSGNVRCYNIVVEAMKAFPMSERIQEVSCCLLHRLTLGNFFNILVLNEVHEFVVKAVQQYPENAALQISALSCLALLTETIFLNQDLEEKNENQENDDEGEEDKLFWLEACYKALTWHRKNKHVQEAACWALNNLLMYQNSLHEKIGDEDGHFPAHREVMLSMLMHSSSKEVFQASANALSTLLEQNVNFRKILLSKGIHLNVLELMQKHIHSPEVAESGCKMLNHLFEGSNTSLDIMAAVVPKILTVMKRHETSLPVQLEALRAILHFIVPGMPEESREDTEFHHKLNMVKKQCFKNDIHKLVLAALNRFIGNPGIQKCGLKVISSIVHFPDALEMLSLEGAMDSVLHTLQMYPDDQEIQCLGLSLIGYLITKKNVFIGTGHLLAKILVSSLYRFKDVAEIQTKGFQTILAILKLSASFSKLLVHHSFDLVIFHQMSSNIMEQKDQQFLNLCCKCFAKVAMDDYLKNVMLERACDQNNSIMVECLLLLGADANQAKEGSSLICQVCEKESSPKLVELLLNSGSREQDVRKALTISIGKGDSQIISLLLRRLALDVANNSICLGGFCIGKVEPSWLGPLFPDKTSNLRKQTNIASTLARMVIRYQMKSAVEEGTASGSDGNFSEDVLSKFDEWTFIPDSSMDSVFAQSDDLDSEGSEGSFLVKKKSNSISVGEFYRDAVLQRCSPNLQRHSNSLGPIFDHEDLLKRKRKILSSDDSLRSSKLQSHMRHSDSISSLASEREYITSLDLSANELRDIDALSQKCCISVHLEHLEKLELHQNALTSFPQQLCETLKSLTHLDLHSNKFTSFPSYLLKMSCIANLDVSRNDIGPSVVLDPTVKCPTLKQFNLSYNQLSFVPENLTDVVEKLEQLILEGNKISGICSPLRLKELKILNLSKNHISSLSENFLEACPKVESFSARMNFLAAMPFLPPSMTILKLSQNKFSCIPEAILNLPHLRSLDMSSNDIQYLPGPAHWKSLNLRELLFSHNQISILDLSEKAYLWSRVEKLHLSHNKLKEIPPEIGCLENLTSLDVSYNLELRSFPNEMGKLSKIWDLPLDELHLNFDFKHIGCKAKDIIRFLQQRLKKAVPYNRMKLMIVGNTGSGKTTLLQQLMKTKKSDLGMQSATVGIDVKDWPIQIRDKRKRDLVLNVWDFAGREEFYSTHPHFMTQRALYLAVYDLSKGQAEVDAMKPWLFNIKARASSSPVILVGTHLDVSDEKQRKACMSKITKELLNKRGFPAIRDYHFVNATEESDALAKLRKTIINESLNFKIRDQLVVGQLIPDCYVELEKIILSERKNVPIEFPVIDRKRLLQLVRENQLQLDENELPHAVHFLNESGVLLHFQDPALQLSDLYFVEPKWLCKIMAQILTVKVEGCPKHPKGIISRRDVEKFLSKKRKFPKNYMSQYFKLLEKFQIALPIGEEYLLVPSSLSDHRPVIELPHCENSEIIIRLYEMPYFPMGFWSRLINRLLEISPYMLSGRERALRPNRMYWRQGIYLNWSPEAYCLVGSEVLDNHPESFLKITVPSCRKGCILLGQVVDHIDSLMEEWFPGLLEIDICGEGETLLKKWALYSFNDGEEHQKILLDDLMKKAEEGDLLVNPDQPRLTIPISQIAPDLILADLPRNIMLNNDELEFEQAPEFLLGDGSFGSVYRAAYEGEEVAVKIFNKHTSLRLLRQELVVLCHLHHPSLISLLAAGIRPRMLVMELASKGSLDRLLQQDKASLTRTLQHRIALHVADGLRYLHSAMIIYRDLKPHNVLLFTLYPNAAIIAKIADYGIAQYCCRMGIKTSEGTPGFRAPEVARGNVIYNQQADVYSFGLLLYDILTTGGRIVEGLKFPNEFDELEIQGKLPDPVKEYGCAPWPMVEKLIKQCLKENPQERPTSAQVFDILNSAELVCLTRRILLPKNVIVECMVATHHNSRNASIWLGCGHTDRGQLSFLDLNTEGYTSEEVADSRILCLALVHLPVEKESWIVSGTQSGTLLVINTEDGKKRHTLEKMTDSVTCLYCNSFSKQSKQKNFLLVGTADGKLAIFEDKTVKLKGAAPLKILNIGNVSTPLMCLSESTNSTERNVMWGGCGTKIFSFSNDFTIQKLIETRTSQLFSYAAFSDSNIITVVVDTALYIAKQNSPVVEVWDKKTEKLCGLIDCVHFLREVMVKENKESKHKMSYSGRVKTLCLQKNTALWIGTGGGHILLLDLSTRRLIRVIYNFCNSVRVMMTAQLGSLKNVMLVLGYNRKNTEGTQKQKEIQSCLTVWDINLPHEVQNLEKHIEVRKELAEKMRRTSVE
Effect on: enzyme activity
Action: inhibitor
Concentration: 0.5 µM
Reference: control
Quantity: remaining activity
NCCNc1ncc(C(N)=O)c(Nc2cccc(C(F)(F)F)c2)n1: 42.1%
C#Cc1cccc(Nc2ncnc3cc(OCCOC)c(OCCOC)cc23)c1: 62.3%
CN(C)c1ccc(C=C2C(=O)Nc3ccccc32)cc1: 89.8%
COc1cc2ncnc(Nc3ccc(F)c(Cl)c3)c2cc1OCCCN1CCOCC1: 108%
O=C(Nc1cccc(Nc2cc(Nc3cccc(C(F)(F)F)c3)ncn2)c1)C1CC1: 95.6%
OCC(O)CCON=C1C(c2c(O)[nH]c3ccccc23)=Nc2ccccc21 (stereo not shown): 81.2%
COc1cc2ncnc(Nc3ccc(Oc4ccccc4)cc3)c2cc1OC: 65.3%
Cn1c2ccccc2c2c3c(c4c5ccccc5n(CCC#N)c4c21)CNC3=O: 30.5%
O=S(=O)(c1cccc2cnccc12)N1CCCNCC1: 94.2%
O=C1NC(=O)C(c2cn(CCCO)c3ncccc23)=C1c1cnccn1: 90%
N#CC(C#N)=C(N)/C(C#N)=C/c1ccc(O)cc1: 97.1%
O=C1NC(=O)C(c2cn(CCCn3ccnc3)c3ccccc23)=C1Nc1ccccc1: 43.6%
COc1ccc(OC)c2c(=S)c3ccccc3[nH]c12: 98%
Cc1nc(-c2ccccc2)c(-c2ccncc2)o1: 96.8%
CNC(=O)c1cc(Oc2ccc(NC(=O)Nc3ccc(Cl)c(C(F)(F)F)c3)cc2)ccn1: 106%

Series 3
Cell line: HuT78
Concentration: 2 µM
Time: 48 h
Reference: untreated
Quantity: viability
Cn1cc(-c2ccc3nnc(C(F)(F)c4ccc5ncccc5c4)n3n2)cn1: 96.8%
N#Cc1c(Oc2ccc(F)c(NC(=O)Cc3cccc(C(F)(F)F)c3)c2)ccc2nc(NC(=O)C3CC3)sc12: 107%
CCCCCCCCc1ccc(CCC(N)(CO)CO)cc1: 91.1%
O=C1NC(=O)[C@@H](c2cn3c4c(cccc24)CCC3)[C@@H]1c1c[nH]c2ccccc12: 22.2%
NC1(c2ccc(-c3nc4ccn5c(=O)[nH]nc5c4cc3-c3ccccc3)cc2)CCC1: 97.9%
CNC(=O)c1cc(Oc2ccc(NC(=O)Nc3ccc(Cl)c(C(F)(F)F)c3)c(F)c2)ccn1: 110%

Series 4
Host: mouse
Matrix: microsomes or S9
Concentration: 2 µM
Time: 0.5 h
Quantity: remaining compound
Brc1c[nH]nc1-c1nc2c3ccccc3ncn2n1: > 99%
COc1cc(-c2nc(C)c(C(=O)NCCc3ccc(S(N)(=O)=O)cc3)s2)cc(OC)c1OC: 54.4%
Cc1cc2cc(CCNC(=O)CC(C)(C)C)c(=O)[nH]c2cc1C: 0.00378%
COc1ccc(N)cc1N1CCCCS1(=O)=O: 94.1%
CCOC(=O)c1cnn(-c2ccc(C(=O)O)cc2)c1N: 1.78%
CC(C)c1ccc(NC(=O)CCNS(=O)(=O)c2cc(Br)cnc2N)cc1: 1.21%
CCN(CC)C(=O)CN(C)Cc1nc(-c2nc[nH]n2)no1: > 100%

Excerpt of the above (series 4):
Cc1cc2cc(CCNC(=O)CC(C)(C)C)c(=O)[nH]c2cc1C: 0.00378%
CCOC(=O)c1cnn(-c2ccc(C(=O)O)cc2)c1N: 1.78%
CC(C)c1ccc(NC(=O)CCNS(=O)(=O)c2cc(Br)cnc2N)cc1: 1.21%
Brc1c[nH]nc1-c1nc2c3ccccc3ncn2n1: > 99%
COc1cc(-c2nc(C)c(C(=O)NCCc3ccc(S(N)(=O)=O)cc3)s2)cc(OC)c1OC: 54.4%
